# Measured values from different studies.
# A part holds a random share of what one study measured.

# Study 1
# Target: Histone acetyltransferase KAT6A, both winged helices, GST fusion (KAT6A, Homo sapiens, UniProt Q92794, residues 1-181)
# Method: protein binding microarray
# Form: double-stranded DNA, one strand shown
# Medium: in vitro
# Concentration: not given
# Notes: 8-mer, flanks averaged, mean of 2 arrays, mostly near background
# Relative to: not given
# Reading: higher = stronger binding
# Target sequence (chain): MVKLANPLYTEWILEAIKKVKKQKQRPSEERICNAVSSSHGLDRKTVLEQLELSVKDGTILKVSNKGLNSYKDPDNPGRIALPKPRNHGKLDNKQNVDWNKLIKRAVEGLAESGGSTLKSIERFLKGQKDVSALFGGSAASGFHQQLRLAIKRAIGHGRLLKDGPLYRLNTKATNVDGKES
Strand,E-score
AATTGCAC,-0.223
CATTTACG,0.0689
CCGATCCC,0.0426
AGGGAATC,-0.0776
AATTACGA,-0.0405

# Study 2
# Target: Interferon regulatory factor 5, full length, phosphomimetic (IRF5, Homo sapiens, UniProt Q13568-2, residues 1-514, S451D/S453D/S456D/S462D)
# Method: protein-binding microarray
# Form: double-stranded DNA, one strand shown
# Medium: in vitro
# Concentration: 940 nM top
# Notes: 60-bp whole probe
# With: salmon DNA 0.4 mg/ml
# Relative to: random background probes
# Reading: higher = stronger binding
Strand,fitted relative affinity [z-score]
GCCTAGCACTCACTTCTGCCTGTCCAACTGTGCTAGGTCTTGATTCGCTTGACGCTGCTG,0.757
GCCTAGCACTCAGCTCACACCTGTCATACTGTGCTAGTCTTGATTCGCTTGACGCTGCTG,-0.0305
GCCTAGCACAACGATATCAGTCTCGAGACGTGCTAGGTCTTGATTCGCTTGACGCTGCTG,1.48
GCCTAGCACCTCACCATCATCCTCACTGCGTGCTAGGTCTTGATTCGCTTGACGCTGCTG,1.04

# Study 3
# Target: Ras GTPase-activating protein-binding protein 1, C-terminal RGG region (G3BP1, Homo sapiens, UniProt Q13283)
# UniProt Q13283, sequence (whole entry, looked up): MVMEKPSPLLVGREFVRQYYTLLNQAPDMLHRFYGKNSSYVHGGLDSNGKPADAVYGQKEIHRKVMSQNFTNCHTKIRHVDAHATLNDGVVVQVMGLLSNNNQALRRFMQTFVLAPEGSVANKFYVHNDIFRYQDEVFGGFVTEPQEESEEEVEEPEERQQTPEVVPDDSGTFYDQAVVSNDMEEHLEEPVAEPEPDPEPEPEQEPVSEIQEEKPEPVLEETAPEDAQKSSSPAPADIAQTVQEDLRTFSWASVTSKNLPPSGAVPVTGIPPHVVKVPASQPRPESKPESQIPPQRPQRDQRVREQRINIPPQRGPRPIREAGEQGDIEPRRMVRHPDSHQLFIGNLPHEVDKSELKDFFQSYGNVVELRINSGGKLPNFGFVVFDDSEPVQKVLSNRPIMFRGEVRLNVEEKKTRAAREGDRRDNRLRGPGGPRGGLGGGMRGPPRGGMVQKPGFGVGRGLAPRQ
# Method: RNA Bind-n-Seq
# Form: RNA
# Medium: in vitro
# Concentration: 1 µM
# Notes: whole 134-nt RNA, ends assumed
# With: 150 mM KCl
# Relative to: input library
# Reading: higher = stronger binding
Strand,log2 enrichment
GGGAGUUCUACAGUCCGACGAUCGUCCUGUGCUACACAUCGUAUGUACCGAAUCGGGGUGGGGUUUUUGGGGAAAAAGGGGAAAGUAUUAUGUUACGCCGUUCGGAUCUGCACUGGAAUUCUCGGGUGUCAAGG,0.753
GGGAGUUCUACAGUCCGACGAUCGUCCUGUGCUACACAUCGUAUGUACCGAAUCGGGAAAAAAAGGGUUUUUGGGUUUGGGAAAGUAUUAUGUUACGCCGUUCGGAUCUGCACUGGAAUUCUCGGGUGUCAAGG,-0.329
GGGAGUUCUACAGUCCGACGAUCCCUCAAGUCCUGUGCUACACAUCGUAUGUACCGAAUCGGAAAGGUUUGGUGGAAAGUAUUAUGUUACGCCGUUCGGAUCUGCACUUCCAGUGGAAUUCUCGGGUGUCAAGG,-1.33

# Other studies, line by line
Molecule,target,assay,test system,setting,how to read,endpoint,value
"PhoQ, residues 284 288 289 292 302 303 ALSMDL","PhoP, residues 12 14 15 18 19 NQGLL (Escherichia coli, UniProt P23836)","Sort-seq, refers to: YFP reporter",E. coli,"PhoQ-PhoP variant library, with: 10 µM Mg2+","relative to: high Mg2+ state, higher = stronger signaling",fold induction,12.1
